# Measured values of several laboratories.
# A part holds a random share of what one study measured. Changes are numbered by the printed parent chain.

# Block 1
# Target: CCNB1, cyclin fold, Cln2 fusion (human)
# Method: yeast growth competition, sequencing
# Matrix: yeast
# Setting: weak parent motif
# Relative to: not given
# Direction: higher = stronger binding
# Parent: CDKN1A docking peptide (human); SKACRRLFGPVDS
Change,normalised enrichment score
STACRRLFGPVDS [K2T],0.338
SKAWRRLFGPVDS [C4W],0.171
SKACRRLSGPVDS [F8S],0.194
SKMCRRLFGPVDS [A3M],0.339
SSACRRLFGPVDS [K2S],0.24

# Block 2
# Target: Interferon regulatory factor 5, full length, phosphomimetic (IRF5, Homo sapiens, UniProt Q13568-2, residues 1-514, S451D/S453D/S456D/S462D)
# Method: protein-binding microarray
# Form: double-stranded DNA, one strand shown
# Matrix: in vitro
# Concentration: 940 nM top
# Setting: 60-bp whole probe
# Together with: salmon DNA 0.4 mg/ml
# Relative to: random background probes
# Direction: higher = stronger binding
# Shared flanks, not repeated: GCCTAGCAC … GTCTTGATTCGCTTGACGCTGCTG
Oligonucleotide,fitted relative affinity [z-score]
TGGCCTGTGCTATTTATAAGGGTGCTA,0.196
TTAGGACTGGCCTTTCGGTTAGTGCTA,0.267
TCACTCTTCTGGATCTCACTGTGCTAG,1.12
TCAGATTTCCCCACCATACTGTGCTAG,1
GACGGGCTGGACTTTCGGGACGTGCTA,0.291
GACGGTTTCGACACTGGGGCCGTGCTA,7.24
TCACCTGTGCTATTTATAACTGTGCTA,0.162
GTTGTACTTTCTATCTCTGTGTGCTAG,2.21

# Block 3
# Target: Sal-like protein 4, full length isoform A (SALL4, Homo sapiens, UniProt Q9UJQ4, residues 1-1053)
# Chain of UniProt Q9UJQ4 (whole entry, looked up): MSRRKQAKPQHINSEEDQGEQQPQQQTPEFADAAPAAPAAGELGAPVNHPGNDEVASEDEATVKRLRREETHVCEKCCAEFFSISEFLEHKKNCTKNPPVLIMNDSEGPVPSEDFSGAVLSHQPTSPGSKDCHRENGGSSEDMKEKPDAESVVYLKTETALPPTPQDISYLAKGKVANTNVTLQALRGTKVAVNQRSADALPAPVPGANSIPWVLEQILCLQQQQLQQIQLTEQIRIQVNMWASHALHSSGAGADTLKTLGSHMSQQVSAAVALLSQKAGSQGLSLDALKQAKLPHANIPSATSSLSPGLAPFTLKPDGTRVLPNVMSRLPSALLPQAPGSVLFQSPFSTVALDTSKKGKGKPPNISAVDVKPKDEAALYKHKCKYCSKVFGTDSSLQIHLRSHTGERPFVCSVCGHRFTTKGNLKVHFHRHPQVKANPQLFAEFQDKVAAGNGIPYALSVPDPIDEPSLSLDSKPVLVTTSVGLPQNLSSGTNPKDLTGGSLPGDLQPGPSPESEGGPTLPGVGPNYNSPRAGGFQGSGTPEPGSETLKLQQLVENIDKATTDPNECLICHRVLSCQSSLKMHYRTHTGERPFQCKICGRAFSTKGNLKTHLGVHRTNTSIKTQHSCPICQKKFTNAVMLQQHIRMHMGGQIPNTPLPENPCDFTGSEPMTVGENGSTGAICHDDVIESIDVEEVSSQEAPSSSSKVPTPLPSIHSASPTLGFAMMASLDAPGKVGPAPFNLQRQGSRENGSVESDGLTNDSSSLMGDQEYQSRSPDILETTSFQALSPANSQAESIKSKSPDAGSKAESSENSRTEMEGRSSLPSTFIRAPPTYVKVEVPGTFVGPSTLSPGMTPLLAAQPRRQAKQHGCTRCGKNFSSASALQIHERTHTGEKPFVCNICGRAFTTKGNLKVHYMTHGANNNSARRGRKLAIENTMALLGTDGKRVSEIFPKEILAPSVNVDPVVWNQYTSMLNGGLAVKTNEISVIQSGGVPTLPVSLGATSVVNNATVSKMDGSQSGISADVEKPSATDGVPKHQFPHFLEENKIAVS
# Method: universal PBM
# Form: double-stranded DNA, one strand shown
# Matrix: in vitro
# Concentration: 600 nM
# Setting: 8-mer, flanks averaged, mean of replicates
# Direction: higher = stronger binding
Oligonucleotide,E-score
AGCAGACA,-0.105
GGAGCACA,-0.0421
TCGCTGAA,0.0534
ATGGCTGC,-0.108
AAGGATAT,0.218
CCCAATCC,-0.243
GCGGATAA,-0.0488

# Further values, each from its own experiment
Substance,target,test,test system,setting,scale,measurement,result
"PhoQ, residues 284 288 289 292 302 303 SNGLAW","PhoP, residues 12 14 15 18 19 STWGI (Escherichia coli, UniProt P23836)","Sort-seq, measured: YFP reporter",E. coli,"PhoQ-PhoP variant library, together with: 10 µM Mg2+","relative to: high Mg2+ state, higher = stronger signaling",fold induction,8.86

# Excerpt of the above (block 2):
Oligonucleotide,fitted relative affinity [z-score]
TCACTCTTCTGGATCTCACTGTGCTAG,1.12
TCAGATTTCCCCACCATACTGTGCTAG,1
